{"data": "Measurements from different studies", "note": "Parts stem from different laboratories: compare values within a part only. Changes are numbered by the printed parent chain."}
{"data": "Sample 1", "target": "RNA binding protein fox-1 homolog 2, RRM domain, GST-SBP tag (RBFOX2, Homo sapiens, UniProt O43251-10, residues 100-194)", "method": "RNA Bind-n-Seq", "molecule type": "RNA", "medium": "in vitro", "concentration": "365 nM", "setting": "natural RNA segment, single round, ends assumed", "baseline": "no-protein control", "reading": "higher = stronger binding", "shared flanks, not repeated": "GGGAGUUCUACAGUCCGACGAUC … UGGAAUUCUCGGGUGCCAA", "Target sequence (chain)": "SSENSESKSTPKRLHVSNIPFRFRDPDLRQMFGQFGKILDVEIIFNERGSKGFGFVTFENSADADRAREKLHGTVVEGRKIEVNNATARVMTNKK"}
{"Oligonucleotide": "UUUUUCCAAGCACUUUAACUUCAGAAAUGGUCUUGACACUUUUUUCUCCACAUAGACUCUUGAAAUAGCCAUUUCAGGGGAGGAAAGGGUUGGGGUUUUCUUUGUUUGUU", "RBNS enrichment (R)": 0.736}
{"Oligonucleotide": "CUACUUUGAGAGAAUUUCAAUAUUCUCUUAAUGUUGUGUAAUUGAUUAGGUAACUAAAAAGCGCAAAUUGUUGGCAGGUUUUGCUGCACAUUGUUCUAUGUCUUUGUUGG", "RBNS enrichment (R)": 0.351}
{"Oligonucleotide": "AUCUCUAGCAAGCCUGUUUCUUGUCAGGUAGCCCAGGAUGGCCUUGAACUCUUAAUCCUCCGCCUUGGCCCUCUAAGGGCUGCUAGUCCGAGUGUGGACAACCACACCUG", "RBNS enrichment (R)": 0.319}
{"Oligonucleotide": "UUACCGGGAGGCAGGCUGUGCACAGAACCCUCUGCUGUGGAGGCCAGAGACCACCACCAGGCCCGCUCCCCACUGAGCCACUUAAGAUGAGCCCCUCAUUUGCACACAGU", "RBNS enrichment (R)": 0.673}
{"Oligonucleotide": "ACCUUGCUUAGGCCUCAGAUCCCAGCUGUGCUCUCCAAUCCAUUAAUAAAGCUGCUUUUAACCCUCUCUGGCCAUUGUAUCUAUUAUCUACUGGGAACUGGGGUGGCGGC", "RBNS enrichment (R)": 0.274}
{"Oligonucleotide": "AUUUGAAUUCCAUUCCCAGUUCUCAUUGUGUUUUGUUUCUUAAAACUAUAAUAAUCGGUUACUGUUAUAAAGUUUAAAAGGUGGUUUUAAUGUGAAUAGCAAAUUCUGGU", "RBNS enrichment (R)": 0.873}
{"Oligonucleotide": "GAAAAUUUCAAUUGCUAAAAAAAAAUCAAAGCACUCAUUCACUUGGGGGGAGGAUCCUACGCAGGGGGGACUUGGUGCGUAUAUUAAGGGCUAUAUUUUUCUAGCAUUUG", "RBNS enrichment (R)": 1.17}
{"Oligonucleotide": "GACGCAGGCUGGGGCAAGUGGUGCGUGGGGCCUGGUCCCCAAGGGGCGGCUGAGAGGCCGCCACUGAGCAUCUCUAUCUGUCAUUCCUUUAGCUAUUUAGGGACCAAAGG", "RBNS enrichment (R)": 0.291}
{"data": "Sample 2", "target": "RING finger protein unkempt homolog, zinc fingers 1-6, SBP tag (UNK, Homo sapiens, UniProt Q9C0B0, residues 30-357)", "method": "RNA Bind-n-Seq", "molecule type": "RNA", "medium": "in vitro", "concentration": "100 nM", "setting": "RNA with constant flanks, vertebrate orthologous sites, ends assumed", "baseline": "input RNA pool", "reading": "higher = stronger binding", "shared flanks, not repeated": "GGGAGUUCUACAGUCCGACGAUC … CAACAGAGGAUUGAGCAUCA", "sequence of UniProt Q9C0B0 (30-357, looked up)": "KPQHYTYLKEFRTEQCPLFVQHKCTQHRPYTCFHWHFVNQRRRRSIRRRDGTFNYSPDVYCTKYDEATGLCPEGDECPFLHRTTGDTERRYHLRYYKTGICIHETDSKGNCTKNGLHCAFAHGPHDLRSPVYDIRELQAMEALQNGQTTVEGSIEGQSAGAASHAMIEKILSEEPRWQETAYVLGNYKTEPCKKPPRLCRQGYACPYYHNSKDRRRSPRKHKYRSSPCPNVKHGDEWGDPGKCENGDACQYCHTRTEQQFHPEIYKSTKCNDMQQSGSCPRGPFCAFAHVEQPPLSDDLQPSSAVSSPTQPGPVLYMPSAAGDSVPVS"}
{"Oligonucleotide": "AUUUUUUAAAGUUUUUUUAAUUUAAUUUUUCCUUUUGGGGGUAAAGUUUGCUCUACCAAAUAGUGAUUGUAACAAAUUGAUCUGUUUUGGAUGUUGCUAUAGUGACAUGCAGUUAUAUAU", "bound/input enrichment [ratio]": 0.72}
{"Oligonucleotide": "AGGAACAGCAUUGGCUGUUCAAGUCUUGAGGAGAUGAGCUUUUUGCUUUUCGUAUUUAAAUAGGAUAAUUUUAUAUGAUGGGUGCUUUUGAGUGUGAUUGCAGCAGACUCUCCAUUUCUG", "bound/input enrichment [ratio]": 0.67}
{"Oligonucleotide": "CCCUCUGAACCCCAUAUCUUCCGUCUCAUAGUGCAGAAGUAGUCUUUUCAAUUAUAUUACUAGUGGACUUGUUUUAAUUUUAGGGAAACUUUCAGUACAGAUACUGUGAGCUUACAUGGA", "bound/input enrichment [ratio]": 2.38}
{"Oligonucleotide": "CUCUAUGGGCCUCGCAGAGUUGAAAUAAUGGAAGAGGAAAGUGAACAGUAAUCUUCAUUUUAGUAUUUAUGCUUAGGUGUGAAAUAAAUGUUAUUUGUUGAUCAUUUCUAUAACCCAGAG", "bound/input enrichment [ratio]": 0.574}
{"Oligonucleotide": "GCACUCGCUGUGCAAAUUUCACAACACUGAAUGCAAAGCAGUACUUUUCCUAGUCACAGUAAGGUAGCUGUAGGGCUGUACCGCCAUGGGGUUACUCAUGUGCCGGUUUUGAAAGUGUAC", "bound/input enrichment [ratio]": 0.223}
{"Oligonucleotide": "UCCAUGCCGCUGUCACCAAAAGCAGGCAGCUCCGUCUCACAAUCUCUUUCAUAGCACUUUUAGUACUUCCUCUUCCCUCCCCUUCCCUUUGCUUAGAUGAUGAUAAAAGGUCCUGAGUUU", "bound/input enrichment [ratio]": 1.16}
{"Oligonucleotide": "AUACUAUUCAUUUGACUGAAGUUAUUUAGAUAAAAGAAAUGGUUUAUGUCUUCUUUCAAGAAGCUUGUUCUAUUUUUCAUCUAUUUGUAAAUGCCAGUUGUGUGUGGUUUUGUAAUAUCA", "bound/input enrichment [ratio]": 0.295}
{"Oligonucleotide": "UCUUCAUGGUGACACCUGGGCAGGUCUCUCAGCAUAUGAUAAUAGCCCAAGGUCGCCCUGUAGUCCAUCUCCUGUGACAUCACCACCCAGCCACAGUUCUUCCCACUCUGCCUGUCCUGU", "bound/input enrichment [ratio]": 0.72}
{"data": "Sample 3", "target": "CCNF, cyclin fold, Cln2 fusion (human)", "method": "yeast growth competition, sequencing", "medium": "yeast", "setting": "strong parent motif", "baseline": "not given", "reading": "higher = stronger binding", "parent": "viral docking peptide; YKVKRRLVFGADD; partner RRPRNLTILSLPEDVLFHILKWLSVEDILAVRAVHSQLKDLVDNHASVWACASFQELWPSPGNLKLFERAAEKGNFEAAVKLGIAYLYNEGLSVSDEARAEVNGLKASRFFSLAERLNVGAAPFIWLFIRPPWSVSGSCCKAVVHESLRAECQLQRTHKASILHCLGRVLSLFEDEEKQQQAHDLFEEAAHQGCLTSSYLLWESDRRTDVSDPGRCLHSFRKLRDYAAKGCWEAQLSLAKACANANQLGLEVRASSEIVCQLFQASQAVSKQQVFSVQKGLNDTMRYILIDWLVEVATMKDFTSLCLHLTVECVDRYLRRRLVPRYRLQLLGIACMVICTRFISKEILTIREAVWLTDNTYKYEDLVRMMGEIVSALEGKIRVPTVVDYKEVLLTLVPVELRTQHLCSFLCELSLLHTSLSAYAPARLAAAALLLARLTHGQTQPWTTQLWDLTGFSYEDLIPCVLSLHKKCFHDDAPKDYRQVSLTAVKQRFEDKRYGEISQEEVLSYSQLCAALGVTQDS"}
{"Substitution": "G10W", "normalised enrichment score": 9.37}
{"Substitution": "A11N", "normalised enrichment score": 8.63}
{"Substitution": "K2R", "normalised enrichment score": 8.71}
{"Substitution": "V8Y", "normalised enrichment score": 9.08}
{"Substitution": "A11C", "normalised enrichment score": 8.78}
{"Substitution": "V3F", "normalised enrichment score": 8.46}
{"Substitution": "A11R", "normalised enrichment score": 9.13}
{"Substitution": "D12N", "normalised enrichment score": 9.19}
{"Substitution": "R6P", "normalised enrichment score": 6.68}
{"Substitution": "K2D", "normalised enrichment score": 8.11}
{"Substitution": "A11I", "normalised enrichment score": 8.68}
{"Substitution": "R5Q", "normalised enrichment score": 5.66}
{"Substitution": "G10L", "normalised enrichment score": 8.38}
{"Substitution": "V8N", "normalised enrichment score": 8.93}
{"Substitution": "D12K", "normalised enrichment score": 8.85}
{"data": "Single results of other studies"}
{"Molecule": "VTDEGTSSF", "target": "HLA class I histocompatibility antigen, C alpha chain, allele C*04:01 (Homo sapiens, UniProt P10321)", "read-out": "peptide-MHC binding", "molecule type": "peptide", "concentration": "concentration not given", "measurement": "binding", "value": "inactive"}
{"note": "Some of these lines once more (sample 3):"}
{"Substitution": "V8Y", "normalised enrichment score": 9.08}
{"Substitution": "V3F", "normalised enrichment score": 8.46}
{"Substitution": "D12K", "normalised enrichment score": 8.85}
{"Substitution": "A11N", "normalised enrichment score": 8.63}
